Experimental data collected from several papers.
Numbered parts are unrelated; each lists some results of a single study. Positions count from the first letter of the parent shown.

Sample 1 — target: CCNB2, cyclin fold, Cln2 fusion (human); method: yeast growth competition, sequencing; sample: yeast; notes: weak parent motif; relative to: not given; direction: higher = stronger binding
Starting sequence: RB1 docking peptide (human); PKPLKKLRFDIEG; partner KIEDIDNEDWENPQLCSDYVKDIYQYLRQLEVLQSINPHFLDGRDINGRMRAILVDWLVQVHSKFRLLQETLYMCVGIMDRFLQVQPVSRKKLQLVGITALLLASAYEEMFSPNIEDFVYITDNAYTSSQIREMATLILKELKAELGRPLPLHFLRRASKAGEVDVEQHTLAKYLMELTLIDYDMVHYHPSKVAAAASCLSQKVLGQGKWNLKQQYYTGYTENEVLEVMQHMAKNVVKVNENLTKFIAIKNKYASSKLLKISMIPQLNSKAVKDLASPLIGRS
| Variant | normalised enrichment score |
| --- | --- |
| PKPLKKLRFDIEL [G13L] | 0.379 |
| PKPLKKLRFDHEG [I11H] | 0.577 |
| PTPLKKLRFDIEG [K2T] | 0.215 |
| PKPLKLLRFDIEG [K6L] | 0.0683 |
| PKPLKKERFDIEG [L7E] | -0.249 |
| PKMLKKLRFDIEG [P3M] | 0.542 |
| PKPYKKLRFDIEG [L4Y] | 0.664 |
| PKPLKKLRFLIEG [D10L] | 0.363 |
| QKPLKKLRFDIEG [P1Q] | 0.637 |

Sample 2 — method: protein binding microarray; form: double-stranded DNA, one strand shown; sample: in vitro; concentration: not given; relative to: not given; direction: higher = stronger binding
Target: Histone acetyltransferase KAT6A, winged helix 2, GST fusion (KAT6A, Homo sapiens, UniProt Q92794, residues 85-181)
Notes: 8-mer, flanks averaged, mean of 2 arrays, mostly near background
Construct (chain): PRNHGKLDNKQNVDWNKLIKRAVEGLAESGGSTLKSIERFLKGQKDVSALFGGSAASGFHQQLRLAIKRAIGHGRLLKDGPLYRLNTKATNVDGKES
| Sequence | E-score |
| --- | --- |
| CTCTCTGA | 0.0968 |
| CCAACAAG | 0.00234 |
| CACGGTGA | -0.00754 |
| ATCATATA | 0.151 |
| CATTCAGG | -0.0148 |
| ACACATCG | -0.123 |
| CAGGCATA | -0.0334 |
| CATGCTAA | 0.104 |
| CTCGGAAC | 0.108 |
| CATAGGGA | -0.0389 |
| CAGGTAGG | -0.155 |
| AGCGCCCC | 0.0621 |
| CGCCTTCC | 0.0494 |
| CGAGTACA | 0.00375 |

Sample 3 — method: RNA Bind-n-Seq; form: RNA; sample: in vitro; concentration: 200 nM; notes: whole 134-nt RNA, ends assumed; with: 150 mM KCl; relative to: input library; direction: higher = stronger binding
Target: Ras GTPase-activating protein-binding protein 1, full length (G3BP1, Homo sapiens, UniProt Q13283)
Chain of UniProt Q13283 (whole entry, looked up): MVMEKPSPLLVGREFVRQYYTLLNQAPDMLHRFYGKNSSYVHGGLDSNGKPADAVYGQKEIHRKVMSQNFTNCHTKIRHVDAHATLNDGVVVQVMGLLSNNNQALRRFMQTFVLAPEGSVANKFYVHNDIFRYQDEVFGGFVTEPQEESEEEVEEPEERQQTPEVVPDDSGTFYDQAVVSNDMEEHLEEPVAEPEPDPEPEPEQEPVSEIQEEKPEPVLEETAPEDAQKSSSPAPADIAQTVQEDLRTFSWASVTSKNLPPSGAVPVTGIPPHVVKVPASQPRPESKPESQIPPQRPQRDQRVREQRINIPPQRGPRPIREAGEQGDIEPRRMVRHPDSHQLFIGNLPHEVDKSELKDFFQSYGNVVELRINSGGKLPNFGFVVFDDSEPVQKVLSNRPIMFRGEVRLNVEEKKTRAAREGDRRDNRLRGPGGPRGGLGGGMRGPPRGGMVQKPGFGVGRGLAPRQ
Shared flanks, not repeated: GGGAGUUCUACAGUCCGACGAUC … UGGAAUUCUCGGGUGUCAAGG
| Sequence | log2 enrichment |
| --- | --- |
| UCAAGUCCUGUGCUACACAUCGUAUGUACCGAAUCGGAAAAAGGUUUUUGGUGGAAAGUAUUAUGUUACGCCGUUCGGAUCUGCACUUCC | -1.14 |
| CCUGUGCUACACAUCGUAUGUACCGAAUCGGGGUUUUUUUGGUUUUUUUGGGUUUUUUUGGAAAGUAUUAUGUUACGCCGUUCGGAUCUG | -0.766 |
| UAACUUUAGAGGAGGAUCUGAUGGAUAUCGCAGUGGACGUGGAUUUGGGGAUGGCUAUAAUGGGUAUGGAGGAGGACCUGGAGGUGGCAA | 0.388 |
| UGGGAGGUGGAUUUUGUUUAUUUUUUUAGCUCAUUUCCAGGGGUGGGAAUUUUUUUUUAAUACGUGUCAUGAAUAAAGUUGUUUUUGAAA | 0.153 |
| ACCAUGCAGGUGGGCAUCUUUGGGAAUUGGGGCAAGGGGGGGAUAGGGAGGGGGGUAACACUUUGGGAACAGGUGGUCCCAGGUCGUUUC | 1.45 |
| UGGGAGGUGGAUUUUGUUUAUUUUUUUAGCUCAUUUCCAGGGGUGGGAAUUUUUUAUUAAUAUGUGUCAUGAAUAAAGUUGUUUUUGAAA | 0.274 |
| CUGUGCUACACAUCGUAUGUACCGAAUCGGGGUUUUUUUGGUUUUUUUGGGUUUUUUUGGGGAAAGUAUUAUGUUACGCCGUUCGGAUCU | -0.949 |
| GUCCUGUGCUACACAUCGUAUGUACCGAAUCGGGGUUUUUGGGGAGGGGAAAAAGGGGAAAGUAUUAUGUUACGCCGUUCGGAUCUGCAC | 0.218 |
| UGAAGACACAGCAUCCACCCGAUCUUCAUUCACUGUCCAAGACCUUAAACCUUUUACAGAAUAUGUGUUUAGGAUUCGCUGUAUGAAGGA | -0.12 |
| UGGGAGGUGGAUUUUGUUUAUUUUUUUAGCUCAUUUCCAGGGGUGGGAAUUUUUUUUUAAUAUGUGACAUGAAUAAAGUUGUUUUUGAAA | 0.0727 |
| GCAGGUAGUAAAAACAAAUGGAAAUGCUUCGGAUAGUGGCAGGGGUGGGGGUUGCUAAGGAAAGGGUGGGAUGGGAGUGGGUAAAGAGUU | 1.01 |
| GACAGACAACACGCACCCACACAGACACAGAGGGAAGGGGUUGGGAUGGGGACAGGGUGCACAGCAGGGCGGGGUAGGACCCCAGCCCCU | 1.78 |
| UCAAGUCCUGUGCUACACAUCGUAUGUACCGAAUCGGGGAAGGGAAGGGGAAGGAAAGUAUUAUGUUACGCCGUUCGGAUCUGCACUUCC | 0.112 |
| AAGUCCUGUGCUACACAUCGUAUGUACCGAAUCGGGAAAGGGGAAAGGGAAAGGGGAAAGUAUUAUGUUACGCCGUUCGGAUCUGCACUU | 0.37 |

Mixed results
| Substance | target | test | system | conditions | scale | endpoint | value |
| --- | --- | --- | --- | --- | --- | --- | --- |
| PhoQ, residues 284 288 289 292 302 303 QWQEDG | PhoP, residues 12 14 15 18 19 LFHKL (Escherichia coli, UniProt P23836) | Sort-seq, item: YFP reporter | E. coli | PhoQ-PhoP variant library, with: 10 µM Mg2+ | relative to: high Mg2+ state, higher = stronger signaling | fold induction | 8.92 |

A few entries again (sample 3):
| Sequence | log2 enrichment |
| --- | --- |
| UCAAGUCCUGUGCUACACAUCGUAUGUACCGAAUCGGAAAAAGGUUUUUGGUGGAAAGUAUUAUGUUACGCCGUUCGGAUCUGCACUUCC | -1.14 |
| UGGGAGGUGGAUUUUGUUUAUUUUUUUAGCUCAUUUCCAGGGGUGGGAAUUUUUUUUUAAUAUGUGACAUGAAUAAAGUUGUUUUUGAAA | 0.0727 |
| CCUGUGCUACACAUCGUAUGUACCGAAUCGGGGUUUUUUUGGUUUUUUUGGGUUUUUUUGGAAAGUAUUAUGUUACGCCGUUCGGAUCUG | -0.766 |
